Results of several laboratories.
≈ marks a conversion by molar mass, not a printed value.
Organism: Staphylococcus aureus

For `O=C(O)c1cn(C2CC2)c2cc(N3CCNCC3)c(F)cc2c1=O`, “lowest effective concentration” read 32 × MIC (respiratory activity, inhibitor, MTT; ATCC 29213; concentration not given; at least 70% inhibition).
`C[C@@H](O)[C@H]1C(=O)N2C(C(=O)O)=C(S[C@@H]3CN[C@H](C(=O)N(C)C)C3)[C@H](C)[C@H]12` gave an FIC index of 1 (checkerboard broth microdilution; ATCC 25923; with: ranalexin).
`CC[C@H]1OC(=O)[C@H](C)[C@@H](O[C@H]2C[C@@](C)(OC)[C@@H](O)[C@H](C)O2)[C@H](C)[C@@H](O[C@@H]2O[C@H](C)C[C@H](N(C)C)[C@H]2O)[C@](C)(O)C[C@@H](C)CN(C)[C@H](C)[C@@H](O)[C@]1(C)O` has a susceptible isolates of 38.5% (hospitalized pneumonia patients, clinical isolates; Fine score 70 or more).
`CCc1cc(=O)c2c(OCC3CO3)c3ccoc3c(OC)c2o1` (stereo not drawn) has an MIC of greater than 256 µg/mL (microbial growth, broth dilution; ATCC29; 19 h).
The FIC index of `CC[C@H]1OC(=O)[C@H](C)[C@@H](O[C@H]2C[C@@](C)(OC)[C@@H](O)[C@H](C)O2)[C@H](C)[C@@H](O[C@@H]2O[C@H](C)C[C@H](N(C)C)[C@H]2O)[C@](C)(OC)C[C@@H](C)C(=O)[C@H](C)[C@@H](O)[C@]1(C)O` is reported as 0.75 (checkerboard broth microdilution; clinical isolate 21-99; with: magainin II).
`CCc1cc(=O)c2c(OCC(O)CNC(C)(C)C)c3ccoc3c(OC)c2o1` (stereo not drawn) has an MIC of greater than 256 µg/mL (microbial growth, broth dilution; ATCC29; 19 h).
`Oc1ccc(-c2nc(-c3ccc(Oc4ccc(C(F)(F)F)cc4)cc3)no2)cc1` has an ED50 of 44 mg/kg (survival; ATCC 27660 MRSA, mouse, peritonitis; oral).
The FIC index of `CO/N=C(\C(=O)N[C@@H]1C(=O)N2C(C(=O)O)=C(CSc3nc(=O)c(=O)[nH]n3C)CS[C@H]12)c1csc(N)n1` is reported as 0.25 (checkerboard broth microdilution; clinical isolate 14-99; with: magainin II).
For `O=[N+]([O-])c1ccc(C=Nc2nc[nH]n2)c(O)c1`, the MIC was 32 µg/mL (≈ 137 µM) (microbial growth, broth dilution; ATCC29213).
With `O=C(/C=C/C=C/c1ccccc1)c1ccccc1OCCBr` the inhibition zone was 7 mm (microbial growth, well diffusion; MTCC96; 1000 µg/mL, 18 h).
The bacterial load of `CC12C[C@@]34C=CC(=O)[C@@](C)(CCC(=O)Nc5c(O)ccc(C(=O)O)c5O)C3[C@H](CC1C4)O2` (stereo partly drawn) is reported as 2e+06 CFU/g (MRSA, BALB/c mice, burn wound infection, skin; topical, 2% ointment twice daily for 7 days, 168 h).
With `CC[C@H](C)[C@H](NC(=O)CNC(=O)[C@H](CCC(=O)O)NC(=O)[C@H](CO)NC(=O)[C@@H](NC(=O)[C@H](CCCNC(=N)N)NC(=O)[C@H](CCCCN)NC(=O)[C@H](CCCCN)NC(=O)[C@H](C)NC(=O)[C@H](CO)NC(=O)[C@H](CC(N)=O)NC(=O)[C@H](CCC(=O)O)NC(=O)[C@H](CC(C)C)NC(=O)[C@H](CCCCN)NC(=O)[C@H](CCCCN)NC(=O)[C@H](C)NC(=O)[C@@H](NC(=O)[C@H](CCCCN)NC(=O)[C@H](CO)NC(=O)[C@H](CC(C)C)NC(=O)[C@H](Cc1c[nH]c2ccccc12)NC(=O)[C@@H](N)CO)[C@@H](C)O)[C@@H](C)CC)C(=O)N[C@@H](C)C(=O)N[C@H](C(=O)N[C@@H](C)C(=O)N[C@H](C(=O)N[C@@H](CCC(N)=O)C(=O)NCC(=O)NCC(=O)N1CCC[C@H]1C(=O)N[C@@H](CCCNC(=N)N)C(=O)O)[C@@H](C)CC)[C@@H](C)CC` the MIC range was 8 to 64 µg/mL (≈ 2.4 to 19.2 µM) (broth microdilution; methicillin-susceptible clinical isolates, Mueller-Hinton broth; 18 h, 35 °C).
`O=C(O)CSc1nnc(C23CC4CC(CC(C4)C2)C3)n1-c1ccccc1` — result for “inhibition zone diameter”: 23 mm (IFO 3060; 200 µg/disc, 24 h, 37 °C).
With `CCc1cc(=O)c2c(OCC(O)CN3CCCCC3)c3ccoc3c(OC)c2o1` (stereo not drawn) the MIC was greater than 256 µg/mL (microbial growth, broth dilution; ATCC6538; 19 h).
`C[C@H]1c2cccc(O)c2C(=O)C2=C(O)[C@]3(O)C(=O)C(C(N)=O)=C(O)[C@@H](N(C)C)[C@@H]3[C@@H](O)[C@@H]21` has an FIC index of 0.75 (checkerboard broth microdilution; clinical isolate 15-99; with: magainin II).
